# Published values of several laboratories.
# Lines come from different studies, so protocols differ. Numbers after ± are the reported error.
# Sequence of UniProt Q8NB78 (whole entry, looked up): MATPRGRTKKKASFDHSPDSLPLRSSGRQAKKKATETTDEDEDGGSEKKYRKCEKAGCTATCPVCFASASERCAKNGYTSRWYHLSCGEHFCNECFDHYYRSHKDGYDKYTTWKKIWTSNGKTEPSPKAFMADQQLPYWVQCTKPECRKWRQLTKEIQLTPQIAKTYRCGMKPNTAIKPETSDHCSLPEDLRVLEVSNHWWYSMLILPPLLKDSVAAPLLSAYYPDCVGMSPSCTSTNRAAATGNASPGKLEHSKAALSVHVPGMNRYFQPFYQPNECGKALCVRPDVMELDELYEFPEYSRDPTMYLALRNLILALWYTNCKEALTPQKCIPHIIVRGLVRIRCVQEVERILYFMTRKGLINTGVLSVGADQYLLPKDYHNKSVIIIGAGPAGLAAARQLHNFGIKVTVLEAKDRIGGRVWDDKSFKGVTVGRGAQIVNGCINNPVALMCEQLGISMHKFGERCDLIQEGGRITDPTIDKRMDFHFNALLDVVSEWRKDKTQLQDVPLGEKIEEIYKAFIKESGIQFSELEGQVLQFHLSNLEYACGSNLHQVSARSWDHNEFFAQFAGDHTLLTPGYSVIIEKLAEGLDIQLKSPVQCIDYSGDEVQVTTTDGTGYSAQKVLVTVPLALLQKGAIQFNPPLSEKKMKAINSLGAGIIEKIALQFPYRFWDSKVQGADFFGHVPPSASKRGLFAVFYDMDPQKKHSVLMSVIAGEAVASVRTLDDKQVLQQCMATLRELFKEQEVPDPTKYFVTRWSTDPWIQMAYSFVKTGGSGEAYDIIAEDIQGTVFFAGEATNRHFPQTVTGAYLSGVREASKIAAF
# Sequence of UniProt O75469 (whole entry, looked up): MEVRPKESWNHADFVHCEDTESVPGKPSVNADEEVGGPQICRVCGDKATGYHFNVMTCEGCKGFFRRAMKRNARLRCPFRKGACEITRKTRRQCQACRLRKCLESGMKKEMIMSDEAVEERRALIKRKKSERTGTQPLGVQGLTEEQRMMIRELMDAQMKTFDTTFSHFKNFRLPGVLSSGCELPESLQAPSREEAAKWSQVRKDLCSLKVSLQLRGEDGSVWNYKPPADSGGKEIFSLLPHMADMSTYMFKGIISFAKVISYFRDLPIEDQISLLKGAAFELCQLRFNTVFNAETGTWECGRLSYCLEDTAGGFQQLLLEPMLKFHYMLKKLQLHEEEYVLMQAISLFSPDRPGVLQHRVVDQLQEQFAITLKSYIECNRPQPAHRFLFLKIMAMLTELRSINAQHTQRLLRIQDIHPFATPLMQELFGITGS
SMILES,target or system,test,test system,setting,scale,measurement,result
NS(=O)(=O)Nc1ncnc(OCCOc2ncc(Br)cn2)c1-c1ccc(Br)cc1,,M6 formation,"female Beagle dog, liver microsomes",50 mg/kg daily for 4 weeks,,Km,7.2 ± 1 µM
[64Cu+2].c1ccc(CNCc2ccc(CN3CCCN4CCNCCCN(CC4)CC3)cc2)nc1,CXCR4,,"NOD/SCID mouse, U87 and U87-stb-CXCR4 xenografts","iv, 90 min, no blocking dose",baseline: U87 tumour over muscle,tumour-to-tissue ratio,15.3 ± 7.01
CCC(=O)N(C)c1ccc(Cl)c(Cl)c1,"NR1I2 (Homo sapiens, UniProt O75469)","reporter gene, agonist",,0.32 µM,baseline: vehicle,fold activation,1.21 fold
CCCC[C@H](NC(=O)CCCCCCCNC(=O)CN1CCN(CC(=O)O)CCN(CC(=O)O)CC1)C(=O)N[C@H]1CC(=O)NCCCC[C@@H](C(N)=O)NC(=O)[C@H](Cc2c[nH]c3ccccc23)NC(=O)[C@H](CCCNC(=N)N)NC(=O)[C@@H](Cc2ccccc2)NC(=O)[C@H](Cc2c[nH]cn2)NC1=O [copper-64 labelled],,,"C57 mice, tumor","intravenous, 0.37 MBq, 4 h",,tissue uptake,5.47 ± 0.52 %ID/g
CN1C(=O)[C@@H](Cc2ccc(O)cc2)NC(=O)CNC(=O)[C@H](Cc2ccc3ccccc3c2)NC(=O)[C@H](CCCNC(=N)N)NC(=O)[C@H]1CCCNC(=O)c1ccc(CNC(=O)CN2CCN(CC(=O)O)CCN(CC(=O)O)CCN(CC(=O)O)CC2)cc1 [gallium-68 labelled],,MIRD OLINDA/EXM dosimetry,"adult male human, heart wall",extrapolated from C57BL/6 mice,,absorbed dose coefficient,0.0393 ± 0.0134 mGy/MBq
CCCC[C@H](NC(=O)CNC(=O)CNC(=O)CN1CCN(CC(=O)O)CCN(CC(=O)O)CCN(CC(=O)O)CC1)C(=O)N[C@H]1CC(=O)NCCCC[C@@H](C(N)=O)NC(=O)[C@H](Cc2c[nH]c3ccccc23)NC(=O)[C@H](CCCNC(=N)N)NC(=O)[C@@H](Cc2ccccc2)NC(=O)[C@H](Cc2c[nH]cn2)NC1=O [lutetium-177 labelled],,,"C57 mouse, female, skin","intravenous, 0.037 MBq, 4 h",,tissue uptake,0.5 ± 0.09 %ID/g
CC[C@H]1[C@@H](O)[C@@H]2[C@H](CC[C@]3(C)[C@@H]([C@H](C)CCOS(=O)(=O)[O-])CC[C@@H]23)[C@@]2(C)CC[C@@H](O)C[C@@H]12.[Na+],,EchoMRI,ob/ob NASH mouse model,"oral, 10 mg/kg once daily, 8 weeks",,whole-body fat mass,19.3 ± 0.7 g
N=C(N)NCCC[C@@H]1NC(=O)[C@H](CCCCNC(=O)CC[C@H](NC(=O)CC[C@H](NC(=O)CN2CCN(CC(=O)O)CCN(CC(=O)O)CCN(CC(=O)O)CC2)C(=O)N[C@@H](CCC(=O)NCCCC[C@@H]2NC(=O)[C@@H](Cc3ccccc3)NC(=O)[C@H](CC(=O)O)NC(=O)CNC(=O)[C@H](CCCNC(=N)N)NC2=O)C(=O)NCCCC[C@@H]2NC(=O)[C@@H](Cc3ccccc3)NC(=O)[C@H](CC(=O)O)NC(=O)CNC(=O)[C@H](CCCNC(=N)N)NC2=O)C(=O)NCCCC[C@@H]2NC(=O)[C@@H](Cc3ccccc3)NC(=O)[C@H](CC(=O)O)NC(=O)CNC(=O)[C@H](CCCNC(=N)N)NC2=O)NC(=O)[C@@H](Cc2ccccc2)NC(=O)[C@H](CC(=O)O)NC(=O)CNC1=O [indium-111 labelled],,,"female athymic nu/nu mice, intestine","intravenous, 24 h",,tissue uptake,7.03 ± 2.06 %ID/g
CC(C)C[C@@H](NC(=O)[C@@H](CC(C)C)NC(=O)[C@@H](CC(=O)O)NC(=O)[C@@H](CC(C)C)NC(=O)[C@@H](CC(C)C)NC(=O)[C@@H](CC(C)C)NC(=O)[C@H](NC(=O)[C@@H](CC(=O)O)NC(=O)[C@H](NC(=O)[C@H]1CCCN1C(=O)[C@@H](Cc1ccccc1)NC(=O)[C@@H](CC(C)C)NC(=O)[C@@H](CC(C)C)NC(=O)[C@@H](CC(=O)O)NC(=O)[C@@H](CC(C)C)NC(=O)[C@@H](Cc1ccc(O)cc1)NC(=O)[C@@H](C)NC(=O)[C@@H](CCCNC(=N)N)NC(=O)[C@@H](Cc1c[nH]c2ccccc12)NC(=O)[C@H]1CCCN1C(=O)[C@@H](CC(N)=O)NC(=O)[C@@H](CCC(N)=O)NC(=O)[C@@H](CC(=O)O)NC(=O)[C@@H](CC(=O)O)NC(=O)[C@@H](CSC1CC(=O)N(CCNC(=O)CN2CCN(CC(=O)O)CCN(CC(=O)O)CC2)C1=O)NC(=O)[C@@H](C)N)[C@H](C)O)[C@H](C)O)C(=O)N[C@H](Cc1c[nH]c2ccccc12)C(=O)O (stereo partly drawn) [fluorine-18 labelled],,,"male nude mice, LNCaP xenograft","intravenous, 4 h",baseline: tumour over bone,tumour-to-bone ratio,4.3 ± 1.1
C=C1CC[C@H](OCCCNC(=O)CCOCCOCCOCCOCCOCCOCCOCCOCCOCCOCCOCCOCCOCCOCCOCCOCCOCCOCCOCCOCCOCCOCCOCCOCCOCCOCCOCCOCCOCCOCCOCCOCCOCCOCCOCCOCCNC(=O)CCN2C(=O)CC(SC[C@H](NC(=O)[C@H](Cc3ccccc3)NC(=O)[C@H](CC(N)=O)NC(=O)[C@H](Cc3c[nH]cn3)NC(=O)[C@@H](NC(=O)[C@H](CC(=O)O)NC(=O)[C@H](CCC(N)=O)NC(=O)[C@H](CC(C)C)NC(=O)[C@H](CCCCN)NC(=O)[C@H](CCCCN)NC(=O)[C@H](CCCNC(=N)N)NC(=O)[C@H](CC(C)C)NC(=O)[C@H](Cc3c[nH]c4ccccc34)NC(=O)[C@H](CCC(=O)O)NC(=O)[C@@H](NC(=O)[C@H](CCCNC(=N)N)NC(=O)[C@H](CCC(=O)O)NC(=O)[C@H](CCSC)NC(=O)[C@H](CO)NC(=O)[C@H](CC(N)=O)NC(=O)[C@H](CC(C)C)NC(=O)[C@H](Cc3c[nH]cn3)NC(=O)[C@H](CCCCN)NC(=O)CNC(=O)[C@H](CC(C)C)NC(=O)[C@H](CC(N)=O)NC(=O)[C@H](Cc3c[nH]cn3)NC(=O)[C@H](CCSC)NC(=O)[C@H](CC(C)C)NC(=O)[C@H](CCC(N)=O)NC(=O)[C@@H](NC(=O)[C@H](CCC(=O)O)NC(=O)[C@H](CO)NC(=O)[C@@H](NC(=O)[C@@H](N)CO)C(C)C)[C@@H](C)CC)C(C)C)C(C)C)C(N)=O)C2=O)C/C1=C/C=C1\CCC[C@]2(C)[C@@H]([C@H](C)CCCC(C)(C)O)CC[C@@H]12 (stereo partly drawn),,,cynomolgus monkey,"sc, 2 µg/kg every other day, 89 days",baseline: 0.7 µg/kg dose,dose-normalised AUC,0.45
N=C(N)NCCC[C@@H]1NC(=O)[C@H](CCCCNC(=O)CNC(=O)CNC(=O)CNC(=O)CC[C@H](NC(=O)CNC(=O)CNC(=O)CNC(=O)CN2CCN(CC(=O)O)CCN(CC(=O)O)CCN(CC(=O)O)CC2)C(=O)NCC(=O)NCC(=O)NCC(=O)NCCCC[C@@H]2NC(=O)[C@@H](Cc3ccccc3)NC(=O)[C@H](CC(=O)O)NC(=O)CNC(=O)[C@H](CCCNC(=N)N)NC2=O)NC(=O)[C@@H](Cc2ccccc2)NC(=O)[C@H](CC(=O)O)NC(=O)CNC1=O [indium-111 labelled],,,"female athymic nu/nu mice, heart","intravenous, 24 h",,tissue uptake,0.28 ± 0.04 %ID/g
Cc1cc(-c2ccc(NC(=O)[C@H](CCCCNC(=O)CCOCCOCCC(=O)N[C@H](Cc3ccccc3)C(=O)N[C@H]3CSSC[C@@H](C(=O)N[C@H](C(=O)O)[C@@H](C)O)NC(=O)[C@H]([C@@H](C)O)NC(=O)[C@H](CCCCN)NC(=O)[C@@H](Cc4c[nH]c5ccccc45)NC(=O)[C@H](Cc4ccc(O)cc4)NC3=O)NC(=O)CN3CCN(CC(=O)O)CCN(CC(=O)O)CCN(CC(=O)O)CC3)c(C)c2)ccc1N=Nc1ccc2c(S(=O)(=O)O)cc(S(=O)(=O)O)c(N)c2c1O [lutetium-177 labelled],,,"metastatic neuroendocrine tumour patients, whole body",intravenous,,whole-body effective half-life,105 ± 12.3 h
CC(C)C[C@H](NC(=O)[C@H](Cc1ccc(O)cc1)NC(=O)[C@@H](CCCNC(=N)N)NC(=O)[C@@H](CO)NC(=O)[C@H](Cc1ccccc1)NC(=O)[C@H](CC1CCCCC1)NC(=O)[C@H](CC(=O)O)NC(=O)CN1CCCN2CCN(CCCN(CC(=O)O)CC2)CC1)C(=O)N[C@@H](Cc1c[nH]c2ccccc12)C(=O)N[C@@H](CO)C(=O)O [copper-64 labelled],,,"female NMRI nude mice, spleen",22 h p.i.,,tissue uptake,2.9 ± 0.7 %ID/g
N=C(N)NCCC[C@@H]1NC(=O)[C@H](CCCCNC(=O)CNC(=O)CNC(=O)CNC(=O)CC[C@H](NC(=O)CNC(=O)CNC(=O)CNC(=O)CC[C@H](NC(=O)CN2CCN(CC(=O)O)CCN(CC(=O)O)CCN(CC(=O)O)CC2)C(=O)NCC(=O)NCC(=O)NCC(=O)N[C@@H](CCC(=O)NCC(=O)NCC(=O)NCC(=O)NCCCC[C@@H]2NC(=O)[C@@H](Cc3ccccc3)NC(=O)[C@H](CC(=O)O)NC(=O)CNC(=O)[C@H](CCCNC(=N)N)NC2=O)C(=O)NCC(=O)NCC(=O)NCC(=O)NCCCC[C@@H]2NC(=O)[C@@H](Cc3ccccc3)NC(=O)[C@H](CC(=O)O)NC(=O)CNC(=O)[C@H](CCCNC(=N)N)NC2=O)C(=O)NCC(=O)NCC(=O)NCC(=O)NCCCC[C@@H]2NC(=O)[C@@H](Cc3ccccc3)NC(=O)[C@H](CC(=O)O)NC(=O)CNC(=O)[C@H](CCCNC(=N)N)NC2=O)NC(=O)[C@@H](Cc2ccccc2)NC(=O)[C@H](CC(=O)O)NC(=O)CNC1=O [indium-111 labelled],,,"female athymic nu/nu mice, U87MG tumour","intravenous, 111 kBq, 72 h",,tissue uptake,5.59 ± 0.54 %ID/g
[64Cu+2].c1cnc(CNCc2ccc(CN3CCCN4CCNCCCN(CC4)CC3)cc2)nc1,CXCR4 (human),,"NOD/SCID mice, U87 xenografts, U87 control tumour",240 min post-injection,,tissue uptake,6.87 ± 1.01 %ID/g
COc1ccc(CCCN[C@H]2CCC[C@@H]2CN[C@H]2CCC[C@@H]2CNCCCCN[C@H]2CCC[C@@H]2CN)cc1,"KDM1B (Homo sapiens, UniProt Q8NB78)","enzyme activity, inhibitor",,,,Ki,4.4 µM
CCCC[C@H](NC(=O)COCCOCCNC(=O)CN1CCN(CC(=O)O)CCN(CC(=O)O)CC1)C(=O)N[C@H]1CC(=O)NCCCC[C@@H](C(N)=O)NC(=O)[C@H](Cc2c[nH]c3ccccc23)NC(=O)[C@H](CCCNC(=N)N)NC(=O)[C@@H](Cc2ccccc2)NC(=O)[C@H](Cc2c[nH]cn2)NC1=O [copper-64 labelled],,,"C57 mice, stomach","intravenous, 0.37 MBq, 0.5 h",,tissue uptake,2.21 ± 0.56 %ID/g
COc1ccc2cc([C@H](C)C(=O)N[C@H](Cc3ccccc3)C(=O)N[C@H](Cc3ccccc3)C(=O)N[C@H](Cc3ccc(O)cc3)C(=O)O)ccc2c1,,,hydrogel 0.8 wt% into PBS,"24 h, pH 7.4, 37 °C",,cumulative release,8%

# Repeated from above:
SMILES,target or system,test,test system,setting,scale,measurement,result
N=C(N)NCCC[C@@H]1NC(=O)[C@H](CCCCNC(=O)CNC(=O)CNC(=O)CNC(=O)CC[C@H](NC(=O)CNC(=O)CNC(=O)CNC(=O)CC[C@H](NC(=O)CN2CCN(CC(=O)O)CCN(CC(=O)O)CCN(CC(=O)O)CC2)C(=O)NCC(=O)NCC(=O)NCC(=O)N[C@@H](CCC(=O)NCC(=O)NCC(=O)NCC(=O)NCCCC[C@@H]2NC(=O)[C@@H](Cc3ccccc3)NC(=O)[C@H](CC(=O)O)NC(=O)CNC(=O)[C@H](CCCNC(=N)N)NC2=O)C(=O)NCC(=O)NCC(=O)NCC(=O)NCCCC[C@@H]2NC(=O)[C@@H](Cc3ccccc3)NC(=O)[C@H](CC(=O)O)NC(=O)CNC(=O)[C@H](CCCNC(=N)N)NC2=O)C(=O)NCC(=O)NCC(=O)NCC(=O)NCCCC[C@@H]2NC(=O)[C@@H](Cc3ccccc3)NC(=O)[C@H](CC(=O)O)NC(=O)CNC(=O)[C@H](CCCNC(=N)N)NC2=O)NC(=O)[C@@H](Cc2ccccc2)NC(=O)[C@H](CC(=O)O)NC(=O)CNC1=O [indium-111 labelled],,,"female athymic nu/nu mice, U87MG tumour","intravenous, 111 kBq, 72 h",,tissue uptake,5.59 ± 0.54 %ID/g
C=C1CC[C@H](OCCCNC(=O)CCOCCOCCOCCOCCOCCOCCOCCOCCOCCOCCOCCOCCOCCOCCOCCOCCOCCOCCOCCOCCOCCOCCOCCOCCOCCOCCOCCOCCOCCOCCOCCOCCOCCOCCOCCOCCNC(=O)CCN2C(=O)CC(SC[C@H](NC(=O)[C@H](Cc3ccccc3)NC(=O)[C@H](CC(N)=O)NC(=O)[C@H](Cc3c[nH]cn3)NC(=O)[C@@H](NC(=O)[C@H](CC(=O)O)NC(=O)[C@H](CCC(N)=O)NC(=O)[C@H](CC(C)C)NC(=O)[C@H](CCCCN)NC(=O)[C@H](CCCCN)NC(=O)[C@H](CCCNC(=N)N)NC(=O)[C@H](CC(C)C)NC(=O)[C@H](Cc3c[nH]c4ccccc34)NC(=O)[C@H](CCC(=O)O)NC(=O)[C@@H](NC(=O)[C@H](CCCNC(=N)N)NC(=O)[C@H](CCC(=O)O)NC(=O)[C@H](CCSC)NC(=O)[C@H](CO)NC(=O)[C@H](CC(N)=O)NC(=O)[C@H](CC(C)C)NC(=O)[C@H](Cc3c[nH]cn3)NC(=O)[C@H](CCCCN)NC(=O)CNC(=O)[C@H](CC(C)C)NC(=O)[C@H](CC(N)=O)NC(=O)[C@H](Cc3c[nH]cn3)NC(=O)[C@H](CCSC)NC(=O)[C@H](CC(C)C)NC(=O)[C@H](CCC(N)=O)NC(=O)[C@@H](NC(=O)[C@H](CCC(=O)O)NC(=O)[C@H](CO)NC(=O)[C@@H](NC(=O)[C@@H](N)CO)C(C)C)[C@@H](C)CC)C(C)C)C(C)C)C(N)=O)C2=O)C/C1=C/C=C1\CCC[C@]2(C)[C@@H]([C@H](C)CCCC(C)(C)O)CC[C@@H]12 (stereo partly drawn),,,cynomolgus monkey,"sc, 2 µg/kg every other day, 89 days",baseline: 0.7 µg/kg dose,dose-normalised AUC,0.45
